# Published values gathered from unrelated publications.
# Each numbered part is a random draw from the data of one study; scales do not carry over between parts. Changes are numbered by the printed parent chain.

# Set 1
# Target: RING finger protein unkempt homolog, zinc fingers 1-6, GST-SBP tag (UNK, Homo sapiens, UniProt Q9C0B0, residues 30-357)
# UniProt Q9C0B0, sequence (30-357, looked up): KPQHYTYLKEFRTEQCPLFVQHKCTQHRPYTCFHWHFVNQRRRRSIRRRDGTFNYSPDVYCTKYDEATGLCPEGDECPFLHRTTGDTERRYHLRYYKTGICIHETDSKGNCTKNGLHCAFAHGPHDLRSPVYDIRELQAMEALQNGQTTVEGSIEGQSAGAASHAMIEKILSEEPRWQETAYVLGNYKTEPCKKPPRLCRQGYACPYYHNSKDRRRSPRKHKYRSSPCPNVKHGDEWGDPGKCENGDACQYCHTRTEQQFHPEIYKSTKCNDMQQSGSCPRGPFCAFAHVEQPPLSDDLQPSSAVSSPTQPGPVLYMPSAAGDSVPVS
# Technique: RNA Bind-n-Seq
# Molecule type: RNA
# Medium: in vitro
# Concentration: not given
# Setting: RNA with constant flanks, human and mouse sites, ends assumed
# Reference: input RNA pool
# Reading: higher = stronger binding
# Shared flanks, not repeated: GGGAGUUCUACAGUCCGACGAUC … CAACAGAGGAUUGAGCAUCA
Sequence,bound/input enrichment [ratio]
CAGCAAAAUGUGACCCAGGUGGCACAUUCUCCACAAGGUUACAACACAGCAAGGGAGAAGCCAACCCGAGAGGUGCAGGAGGUGUCUCGAAAUAAUGAUGUGUGGCAGAACCAUGAAGCA,0.183
UUUGAGGAAGGUGUGGGGAAGCCCGCCAAGCAGCUGCAGGACCUCCGGAACGCAUCCCGGCUCCUGCGGGUGAAUCCCGAGAGCACGACUUCUGUGGUCUGAGGCUCUGCUCUGUGUCUU,0.0372
GAUUGCAUAGCUAAACAUCACAGAGCAUGAUAUUAAAUGGCUGCUAUUUAAAUAAAUAUGUGACCUUGUCCUAAAGCUAUAAUACUGGCCGGGCACAGUGGCUCACGCCUGUAAUCCCAG,0.398
AAUGGUUUGCCCAGUCCUGACCACAUACUGUCCUUUCUGAUGGGACAAGAUCCAAUAUGAAUGUAAGUGAUGGAGGAAGACGACGCUUUGAGGAUAAUGAACACACAUUGCGAAUAUAUC,0.11
UUUAUUUUGCACAUUAUGCAAAAGGAAGAAUAUUAGAAACACUUUUUUUUAAGUGAGUGAAAGUAUGGUAAGACGGUUAGUGCUUUGUGCACUUCUUAGACUAAUCAAGGUCAUCCAUCG,1.07
UGUCGCUCCUUUGGAAAUAAUAAAUAUCCACAAAAUAGUGAUGAUGAAGAAAAUGAACCACAGAUUGAAAAAGAGGAAAUGGAGCUUAGUUUGGUGAUGUCCCAGAGAUGGGACAGCAAU,1.05
AACACCAACACAGCAAUCGAGCUGAAACUAGUUCGUUUUCCUGAAGAUCUUGAGAAUGACAUUAGAACUUUCUUUCCUGAAUAUACCCAUCAGCUCUUUGGGGAUGAUGAAACUGCUUUC,0.129
GGCAUCAGAUGGUCUCUGGGAUGCUUUCAGCAAUGAAGAAGCAGUUCGAUUCAUCAAGGAGCGCUUGGAUGAACCUCACUUUGGGGCCAAGAGCAUAGUUUUACAGUCAUUUUACAGAGG,2.7
AGUAUUAAAAAAAUCAUACAUGUGCUGGAGAAGGUCCAGUAUCUUGAACAAGAAGUAGAAGAAUUUGUAGGAAAAAAGACAGACAAAGCAUACUGGCUUCUGGAAGAAAUGCUAACCAAG,1.71
AUAUACUUUUAUCAUUUAAAUGUCUUAUUUGCUGCUAUGAAUAGGAAAUAACAUUUUGUAUAGCAGGCUCUGUUUUACCCUAACAUUAAAAAAUUUCACUGAUCUUUCUUUCAUUAACAG,2.42
GAUGUAAAUCAAAUUGCCCUGUAGACUAUCUUCGUUUCACCUGCCAUUGUAUCACCAGUAUUCUUUGCAAUUGGUUGUAUAUGUACUUUUGGGAGAAACAUAUAAGGUAUUUUCCCUUGG,0.0901

# Set 2
# Target: RNA binding protein fox-1 homolog 2, RRM domain, GST-SBP tag (RBFOX2, Homo sapiens, UniProt O43251-10, residues 100-194)
# Technique: RNA Bind-n-Seq
# Molecule type: RNA
# Medium: in vitro
# Concentration: 365 nM
# Setting: natural RNA segment, single round, ends assumed
# Reference: no-protein control
# Reading: higher = stronger binding
# Shared flanks, not repeated: GGGAGUUCUACAGUCCGACGAUC … UGGAAUUCUCGGGUGCCAA
# Target sequence (chain): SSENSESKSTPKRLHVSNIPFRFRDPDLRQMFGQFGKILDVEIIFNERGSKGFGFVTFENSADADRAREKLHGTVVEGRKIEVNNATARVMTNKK
Sequence,RBNS enrichment (R)
GAGACCUGAGCUCUUCUGGCCACGUGGAACCUCGAACCCGAGCUCCUGCAGAAGUGGCCCUGGAGAUUGAGGGUCCCUGGACACUCCCUAUGGAGAUCCGGGGAGCUAGG,0.21
UCCCUCUGUCUGUUUAUGCCUGGUGUGAGUUCCAUCGGGUGUCUUUAAAUAGUUGCAGAAGGGAUACGUCAUCUGUUAAUGCUUUUUGUGAAGUGAGUUAAUGAGCCUUC,0.817
AACCCACAAUCUCCACCAGCAGAGCUGGUGUUGUUCUGAAUAGUGCAGACUGAUUCGAACACAAGGCAUCUGUGAGGGGAGUCCUCCCUCUUCAAAGCAUCUGUGUGAGG,0.476
GACCAUAGAAUUGCUCUCUAGGAGCUGGGCAUGGUGACCUACGUCUGUAUUCUCAGCACUCAGGAGACUGCUACAGCAGGAUUGAGAGAUCAGAGGCAGGCUUGUCUUUG,0.273
UUUCUGGAAUUUUCCGUUUGGGAAUCUCCACUUCUGGGGUUUACCUGUUCGGCCUCCUGUCUAUCAGUGAGGCAUCUCUGACUGUUUCUUCUACUGCUUUUCAGUUCCCU,0.232
AUUUCCUUAUUAUCAGAUGUAUUUUUUCUUUUAAGUUUCAAUGUUGUUAUAAUUCUCAACCAGAAAUUUAAUACUUUCUAAAAUAUUUUUUAAAUUUAGCUUGUGCUUUU,2.19
CAGGUGCUGCCCUUGCUGCUGCUGGUCGGGCACCCAAGUGCGUGAGGGGCUUCAGCCUGUCCCGGGGUUGCCUGAGGCAGAGCAAGACGGGUUCUCACCCCUGACUUCUG,0.255
UGAGUCUGAGAUUUCGUUGUUUUUAAUACUUUAAAAAAAAAAGUCUCUUUUAGAAAGAAAAUGAUAUAUAGGGUAAGCGGAAUUUGGGAGCCACGGCCCCAGUAAGUAAU,0.547
CAGGAGUUUCCUGAGGUAGGUUAGUAGGGUCACGUGAAUGCCUCACUAUGACAUGACUUGAGUCCAGUGAGAUCUCAUUAGGAUUAAUAUUUCAGGGAUCCUUAAUAUUU,5.25
CCAGAAGACCCAACUGGUGCCAAGGAAUCCCAGCAUGGACAGGCAGGGACCUGUUUCCCAAGAAGAGAGCCUGAUAUUCAAAGGGUGGGACAGCAUCUGCCCGACUUCCC,3.21
CGAGAGGGCAUAUGGGGCCCUGCCAACACCACUUCCUCAGCAGAAACCCGUCAUGACGCGGCUGCUUCGGAAGCAGACAUCUGGGGACACAGCCUCAGUACCCAGUCUUU,0.342

# Set 3
# Target: CCNB3, cyclin fold, Cln2 fusion (human)
# Technique: yeast growth competition, sequencing
# Medium: yeast
# Setting: strong parent motif
# Reference: not given
# Reading: higher = stronger binding
# Starting sequence: BRCA2 docking peptide (human); PSIKRNLLNEFDR
Variant,normalised enrichment score
PSIKKNLLNEFDR [R5K],0.295
PSIKRNLLNEFGR [D12G],0.661
PSIKRNLSNEFDR [L8S],0.724
PSIKRNLLNEFDK [R13K],0.956
PSIKDNLLNEFDR [R5D],0.719
PSIKRNLLQEFDR [N9Q],1.53
PSIKRNLMNEFDR [L8M],2.04
PSIKRNLLNEFDD [R13D],0.975
PSCKRNLLNEFDR [I3C],1.77
PSIKRCLLNEFDR [N6C],0.0132
PSIERNLLNEFDR [K4E],0.226
PSIGRNLLNEFDR [K4G],-0.0606

# Mixed results
Substance,target,test,system,setting,how to read,measurement,result
"PhoQ, residues 284 288 289 292 302 303 NLMGRA","PhoP, residues 12 14 15 18 19 NQAHL (Escherichia coli, UniProt P23836)","Sort-seq, refers to: YFP reporter",E. coli,"PhoQ-PhoP variant library, with: 10 µM Mg2+","reference: high Mg2+ state, higher = stronger signaling",fold induction,1.72

# Excerpt of the above (set 3):
Variant,normalised enrichment score
PSIGRNLLNEFDR [K4G],-0.0606
PSIKRNLLQEFDR [N9Q],1.53
PSIKRNLLNEFGR [D12G],0.661
PSIKRNLLNEFDD [R13D],0.975
PSIKRNLMNEFDR [L8M],2.04
PSCKRNLLNEFDR [I3C],1.77
